Measured values collected from several papers.
Every numbered part comes from another study and shows a few of its results, in no order. Changes are numbered by the printed parent chain.

Study 1 — cell line: HaCaT; concentration: 100 µM; time: 36 h
With `C#C[C@]1(O)C=C[C@H]2[C@@H]3CCC4=CC(=O)CC[C@@H]4[C@H]3CC[C@@]21CC` the viability was 85.8%.
The viability of `CCC(=O)O[C@H]1CC[C@H]2[C@@H]3CC[C@H]4CC(=O)[C@H](C)C[C@]4(C)[C@H]3CC[C@]12C` is reported as 56.9%.
`C=CC[C@]1(O)CC[C@H]2[C@@H]3CCC4=CC(=O)CCC4=C3C=C[C@@]21C` gave a viability of 17.9%.
The viability of `N#Cc1nn(-c2c(Cl)cc(C(F)(F)F)cc2Cl)c(N)c1[S+]([O-])C(F)(F)F` (centres unmarked) is reported as 12.5%.

Study 2 — cell line: HEK-293T; read-out: pseudovirus infection; method: FDA-approved drug library counter-screen; organism: VSV pseudotyped with VSV-G; concentration: 10 µM; time: 16 h; baseline: vehicle-treated
`NCCCNCCSP(=O)(O)O` has a GFP-positive cells of 116%.
For `O=C(O[C@H]1CN2CCC1CC2)N1CCc2ccccc2[C@@H]1c1ccccc1`, the GFP-positive cells was 125%.
`COc1cc(NC(C)CCCN)c2ncccc2c1` (centres unmarked) gave a GFP-positive cells of 91.7%.
`CN1CC(=O)N2[C@H](c3ccc4c(c3)OCO4)c3[nH]c4ccccc4c3C[C@@H]2C1=O` gave a GFP-positive cells of 94.9%.

Study 3 — read-out: ligand displacement; concentration: 10 µM
Target: Delta-type opioid receptor (OPRD1, Homo sapiens, UniProt P41143)
Sequence of UniProt P41143 (whole entry, looked up): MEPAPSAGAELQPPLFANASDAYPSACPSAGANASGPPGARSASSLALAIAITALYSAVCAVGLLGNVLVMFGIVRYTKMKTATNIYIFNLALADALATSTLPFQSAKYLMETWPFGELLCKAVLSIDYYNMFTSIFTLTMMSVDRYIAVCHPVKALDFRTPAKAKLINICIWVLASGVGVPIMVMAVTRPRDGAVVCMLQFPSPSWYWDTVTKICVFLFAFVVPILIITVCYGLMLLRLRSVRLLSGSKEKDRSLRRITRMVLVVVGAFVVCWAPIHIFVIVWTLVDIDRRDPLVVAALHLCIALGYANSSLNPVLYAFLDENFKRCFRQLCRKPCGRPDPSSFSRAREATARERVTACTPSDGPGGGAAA
`CC1CCN(c2ccnc(NCc3cn(C)cn3)n2)CC1` gave an inhibition of 4.65%.
With `Cn1nc(C(=O)NCc2ccc(C(=O)O)cc2)cc1-c1ccc2[nH]ccc2c1` the inhibition was 0.8%.
With `COc1ccc2cc(OCC3(C(=O)O)CN(C(=O)c4ccc(F)cc4)C3)ccc2c1` the inhibition was 5.07%.
For `O=C(Nc1ccc(Oc2ccc(F)cc2)cc1)N1CCc2ncccc2[C@H]1c1ccc(F)cc1`, the inhibition was 32.7%.
For `COc1cc(-c2cn(C3CCc4c(F)cccc4N(CC(F)(F)F)C3=O)nn2)ccc1-n1cnc(C)c1` (centres unmarked), the inhibition was 18.2%.
`C[C@H](c1ccnc(Nc2nc3ccc(-c4cc(N(C)C)ncn4)cc3[nH]2)c1)N1CCN(C(=O)CC(F)(F)F)CC1` has an inhibition of 29%.
`Nc1nc(NCc2ccccc2)nc(-c2ccccc2CO)n1` has an inhibition of 12.5%.
The inhibition of `Cn1cc(Cl)c2c(Oc3c(F)cc(Nc4cc(Cl)nc(N)n4)cc3F)ccnc21` is reported as -5.39%.
`C[C@@H]1CN(c2cc(-c3n[nH]c4ccc(OC5(C)CC5)cc34)ncn2)C[C@H](C)O1` gave an inhibition of 6.66%.
With `Cc1ccccc1Oc1cc(-n2c(=O)cc(C(F)(F)F)[nH]c2=O)c2ccccc2c1Cl` the inhibition was 14.5%.
The inhibition of `CCC(F)(F)c1cc(N2CCC(S(C)(=O)=O)CC2)nc2sc(C(N)=O)c(N)c12` is reported as 3.97%.
The inhibition of `O=C1NC(c2ccccn2)Sc2ccccc21` (centres unmarked) is reported as -0.624%.
With `NC(=O)c1ccc2nc(-c3ccc(C4(N)CCC4)cc3)c(-c3ccccc3)n2n1` the inhibition was 26.9%.

Study 4 — target: tungstate, free oxyanion; method: microfluidic competitive inhibition; sample: in vitro, cell-free expressed; concentration: not given; direction: lower = stronger binding
Setting: derived from inhibition constants, unchanged parent 2230 nM
Starting sequence: PafA, mature enzyme, eGFP fusion (Elizabethkingia meningoseptica, UniProt Q9KJX5); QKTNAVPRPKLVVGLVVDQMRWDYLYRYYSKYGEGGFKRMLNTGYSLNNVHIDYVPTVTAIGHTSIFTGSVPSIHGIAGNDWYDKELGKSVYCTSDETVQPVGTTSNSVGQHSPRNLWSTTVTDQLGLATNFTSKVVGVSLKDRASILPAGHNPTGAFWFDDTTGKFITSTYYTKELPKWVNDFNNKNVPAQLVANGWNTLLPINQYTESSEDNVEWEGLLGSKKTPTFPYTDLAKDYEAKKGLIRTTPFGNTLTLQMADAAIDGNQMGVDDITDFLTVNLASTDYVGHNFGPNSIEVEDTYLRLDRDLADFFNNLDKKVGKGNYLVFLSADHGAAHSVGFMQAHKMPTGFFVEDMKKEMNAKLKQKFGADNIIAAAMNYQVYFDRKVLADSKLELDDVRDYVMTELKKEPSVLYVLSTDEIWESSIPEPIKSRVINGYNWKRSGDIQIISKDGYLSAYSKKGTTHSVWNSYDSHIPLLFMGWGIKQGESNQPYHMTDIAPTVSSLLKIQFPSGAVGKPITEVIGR
`V516A` — result for “oxyanion analog dissociation constant”: 1.57 µM.
For `T174G`, “oxyanion analog dissociation constant” read 2.36 µM.
For `Y459V`, “oxyanion analog dissociation constant” read 2.41 µM.
`Q111G`: “oxyanion analog dissociation constant” 1.87 µM.
Under “oxyanion analog dissociation constant”, `E410V` is recorded as 2.32 µM.
`I447G` — result for “oxyanion analog dissociation constant”: 1.35 µM.
`M378V`: “oxyanion analog dissociation constant” 2.44 µM.
`V416G` — result for “oxyanion analog dissociation constant”: 1.67 µM.

For quick reference, copied from above (study 4):
`Q111G`: “oxyanion analog dissociation constant” 1.87 µM.
Under “oxyanion analog dissociation constant”, `E410V` is recorded as 2.32 µM.
